Results gathered from unrelated publications.
Each line is one published result; not all experiments were run side by side. Values joined by “and” are separate records of one study, mostly repeats; a detail may differ. Numbers after ± are the reported error.

Compound	tested on	test	system	conditions	how to read	measurement	value
C[C@H]1C[C@H]2CSC(N)=N[C@@]2(c2nc(NC(=O)c3ccc(OC(F)F)cn3)cs2)CO1	–	refers to: total Aβ	healthy adults, plasma	275 mg once daily, day 7	reference: placebo	percent change from baseline	-67.3%
COc1cc2c(NC3CCN(C(C)C)CC3)nc(C3CCCCC3)nc2cc1OCCCN1CCCC1	OCI-Ly1	–	–	0.5 µM, 120 h	–	viability	143%
CC1(C)OB(c2ccccc2/C=N/NC(=O)c2ccncc2)OC1(C)C	–	LC-UV	ADS buffer	100 µM, 37 °C, added: H2O2 200 µM	–	activation rate constant	0.0671 ± 0.0051 h⁻¹
c1coc(-c2n[nH]cc2-c2ccnc3ccccc23)c1	YPK1 (Candida albicans)	kinase binding, MIB/MS competition	Candida albicans lysate	1 µM	reference: DMSO	log2 fold change	-0.17
C[C@H](Oc1ccc(Br)cc1-c1ccon1)C(=O)O	–	muscle velocity recovery cycles	human, tibialis anterior muscle	1200 mg single dose, 3.5 h	–	MVRC latency	5.93 ms
Cn1cc(-c2ccc(-c3cncc(Cl)c3N3CCC4(CCNC4=O)CC3)cc2)cn1	COLO 205	gene expression, microarray, refers to: CRYBB1 mRNA	–	concentration not given, 6 h	reference: untreated cells	log2 fold change	-2.98
Oc1ccccc1-c1n[nH]cc1-c1ccnc2ccccc12	KNS1 (Candida albicans)	kinase binding, MIB/MS competition	Candida albicans lysate	1 µM	reference: DMSO	log2 fold change	0.29
c1ccc(-c2n[nH]cc2-c2ccnc3ccccc23)nc1	–	kinase binding, competitor, MIB/MS competition, refers to: HRR25	Candida albicans cell lysate	100 nM	reference: DMSO	log2 fold change	1.12
NC(=O)c1cnc2[nH]ccc2c1N[C@@H]1[C@@H]2CC3C[C@H]1C[C@@](O)(C3)C2	–	flow cytometry	Japanese healthy men, blood	oral, 30 mg twice daily, 72 h after day 7 dose	reference: baseline	CD4+ effector T-cell change	0.02%
O=C(O)/C=C/c1nccc2c3ccccc3n(Cc3ccc(Br)c4ccccc34)c12	–	–	mouse, acute hyperuricaemia model, serum	oral, 2 mg/kg, individual animal data	–	serum uric acid	278 µM and 332 µM and 197 µM
Cc1noc(C)c1-c1cc(C(O)(c2ccccn2)c2ccccn2)c2nc(C3CC3)[nH]c2c1	–	refers to: CCR2 expression	human, peripheral blood	1.4 mg, day 8, 1599 study	–	maximum inhibition	50.9%
CCCCC1(CCCC)CN(c2ccccc2)c2cc(SC)c(OCC(=O)N[C@@H](C(=O)NCC(=O)O)c3ccccc3)cc2S(=O)(=O)C1	–	refers to: 7α-hydroxy-4-cholesten-3-one	human, plasma	10 mg once daily, day 1	–	plasma C4	13.3 ng/mL
CCCCCOc1ccc(/C=C\c2cccc(O)c2C(=O)O)cc1	OCI-Ly1	–	–	0.5 µM, 120 h	–	viability	152%
C=C1CC[C@H](OCCCNC(=O)CCOCCOCCOCCOCCOCCOCCOCCOCCOCCOCCOCCOCCOCCOCCOCCOCCOCCOCCOCCOCCOCCOCCOCCOCCOCCOCCOCCOCCOCCOCCOCCOCCOCCOCCOCCOCCNC(=O)CCN2C(=O)CC(SC[C@H](NC(=O)[C@H](CCCNC(=N)N)NC(=O)[C@@H]3CCCN3C(=O)[C@H](CCC(N)=O)NC(=O)[C@H](CC(C)C)NC(=O)[C@H](CCCCN)NC(=O)[C@H](C)NC(=O)[C@@H]3CCCN3C(=O)[C@@H]3CCCN3C(=O)[C@H](CCCCN)NC(=O)[C@H](CCCCN)NC(=O)[C@H](CO)NC(=O)[C@H](CCC(=O)O)NC(=O)[C@H](CCCCN)NC(=O)[C@H](CCCNC(=N)N)NC(=O)[C@H](CCC(N)=O)NC(=O)[C@H](CCC(N)=O)NC(=O)[C@@H](NC(=O)[C@H](CCCNC(=N)N)NC(=O)[C@H](CCC(N)=O)NC(=O)[C@H](Cc3c[nH]cn3)NC(=O)[C@H](CCC(=O)O)NC(=O)[C@@H]3CCCN3C(=O)[C@H](CO)NC(=O)[C@H](CC(C)C)NC(=O)[C@H](Cc3ccccc3)NC(=O)[C@H](CNC(=O)CCCCCCC)NC(=O)[C@H](CO)NC(=O)CN)C(C)C)C(=O)O)C2=O)C/C1=C/C=C1\CCC[C@]2(C)[C@@H]([C@H](C)CCCC(C)(C)O)CC[C@@H]12 (stereo partly shown)	–	–	C57BL/6J mice, LLC tumour-induced cachexia	daily	reference: pair-fed tumour-bearing vehicle	tumour-free body weight	decreased
N#CCC1CCN(c2nc(Nc3ccc(N4CCC(O)CC4)cc3)c3c(=O)[nH]ncc3n2)CC1	–	Olink multiplex	human, serum	80 mg, day 29, unit not given	reference: baseline	osteopontin level change	-1.39
CC(C)C[C@H](NC(=O)C[C@H](O)[C@H](CC(C)C)NC(=O)[C@H](Cc1c[nH]cn1)NC(=O)CNC(=O)[C@@H](NC(=O)[C@H](C)NC(=O)[C@H](Cc1c[nH]c2ccccc12)NC(=O)[C@H](CCC(N)=O)NC(=O)[C@@H](Cc1ccccc1)NC(=O)COCCOCCNC(=O)CCC(C(=O)O)N1CCN(CC(=O)O)CCN(CC(=O)O)CCN(CC(=O)O)CC1)C(C)C)C(N)=O (stereo partly shown) [lutetium-177 labelled]	–	–	BALB/c nu/nu mice, heart	intravenous, 500 pmol, 1 h, added: PA 300 µg	–	tissue uptake	0.15 ± 0.06 %ID/g
COc1ccc(F)cc1C(=O)NCc1ccc(-c2nn([C@@H](C)C(F)(F)F)c(N)c2C(N)=O)cc1	–	–	CLL/SLL patients	dose not given, prior chemo, CD20, BTK, BCL2 agents	–	overall response rate	69%
CO[C@H]1CC[C@H](N2C(=O)CNc3ncc(-c4ccc(C(C)(C)O)nc4)nc32)CC1	–	flow cytometry	stimulated B cells, human, blood	30 mg single dose, 1.5 h, mean	reference: baseline	pS6RP change from baseline	-65.2%
CCN1CCN(Cc2ccc(Nc3ncc(F)c(-c4cc(F)c5nc6n(c5c4)[C@H](C)CCC6)n3)nc2)CC1	–	–	human advanced solid tumours	50 mg, phase Ia monotherapy RECIST 1.1	–	complete response	0%
c1ccc(-c2cc(-c3ccccc3)n(Cn3ccnc3)n2)cc1	–	–	rat, STZ-nicotinamide diabetic	150 mg/kg, 264 h, full-thickness excision wound	–	wound size	12 mm
CC(C)NCC(O)c1ccc(O)c(O)c1 (stereo not shown)	–	–	ventricular cardiomyocytes, C57BL/6 mouse	dose not given, 0.316 s	–	sarcomere length	1.72 µm
Cc1cn[nH]c1	–	barrier function (TEER)	human ileal GI microtissue EpiIntestinal-FT	–	–	IC15	> 100 µM
O=C(O)CNC(=O)Cc1ccccc1	–	–	ventricular cardiomyocytes, C57BL/6 mouse	dose not given, 0.368 s	–	sarcomere length	1.72 µm
CCCOc1ccc(-c2ccc(C#N)cc2)cc1	–	proteomics, refers to: Snca	rat placenta	concentration not given, uterine perfusion, all three doses	–	protein level	decreased
O=C(O)C[C@H](O)C[C@H](O)/C=C/c1c(C2CC2)nc2ccccc2c1-c1ccc(F)cc1	COS-7	WST-8	–	3 µM, 24 h, 0.1% DMSO, unit not given	reference: vehicle control	metabolic activity	0.91 ± 0.09

Some of these lines once more:
Compound	tested on	test	system	conditions	how to read	measurement	value
COc1cc2c(NC3CCN(C(C)C)CC3)nc(C3CCCCC3)nc2cc1OCCCN1CCCC1	OCI-Ly1	–	–	0.5 µM, 120 h	–	viability	143%
NC(=O)c1cnc2[nH]ccc2c1N[C@@H]1[C@@H]2CC3C[C@H]1C[C@@](O)(C3)C2	–	flow cytometry	Japanese healthy men, blood	oral, 30 mg twice daily, 72 h after day 7 dose	reference: baseline	CD4+ effector T-cell change	0.02%
